Assay results collected from several papers.

| Compound | system | setting | Cmax |
| --- | --- | --- | --- |
| C[C@@](O)(C(F)F)[C@H](NC(=O)c1ccc(C#CC#CC2CC2)cc1)C(=O)NO | mouse, plasma | intraperitoneal, 40 mg/kg | 17900 ng/mL |
| NC1CCN(C(=O)OC2CCCC3(C2)OOC2(O3)C3CC4CC(C3)CC2C4)CC1 (stereo not drawn) | mouse, plasma | oral, 50 mg/kg, single dose | 631 ng/mL |
| O=c1cc(-c2ccccc2)oc2c(Br)c(O)c(O)c(O)c12 | C57BL/6 mouse, plasma | intravenous, 10 mg/kg, single dose | 3440 ng/mL |
| CS(C)(=O)=Nc1ccc(-c2ccc(-c3nc4cc(O[C@@H]5CO[C@H]6[C@@H]5OC[C@H]6O)[nH]c4cc3F)cc2)cc1 | female C57BL/6 mouse, plasma | oral, 10 mg/kg | 1560 ng/mL |
| CC(C)[C@H]1NC(=O)C[C@H]2/C=C/CCSSC[C@@H](NC1=O)C(=O)N[C@H](Cc1cccc3ccccc13)C(=O)NCC(=O)O2 | nude mouse, blood | oral, 24 mg/kg | 7.11 ng/mL |
| CCCCCCCC(=O)NC[C@H](NC(=O)[C@H](CO)NC(=O)CN)C(=O)N[C@@H](Cc1ccccc1)C(=O)N[C@@H](CC(C)C)C(=O)N[C@@H](CO)C(=O)N1CCC[C@H]1C(=O)N[C@@H](CCC(=O)O)C(=O)N[C@@H](Cc1c[nH]cn1)C(=O)N[C@@H](CCC(N)=O)C(=O)N[C@@H](CCCNC(=N)N)C(=O)N[C@H](C(=O)N[C@@H](CCC(N)=O)C(=O)N[C@H](C(=O)N[C@@H](CCCNC(=N)N)C(=O)N1CCC[C@H]1C(=O)N1CCC[C@H]1C(=O)N[C@@H](Cc1c[nH]cn1)C(=O)N[C@@H](CCCCN)C(=O)N[C@@H](C)C(=O)N1CCC[C@H]1C(=O)N[C@@H](Cc1c[nH]cn1)C(=O)N[C@H](C(=O)N[C@H](C(=O)O)C(C)C)C(C)C)C(C)C)C(C)C | mouse, plasma | intraperitoneal, 7.2 mg/kg | 588 ng/mL |
| CN(CC(=O)N(Cc1ccc(C2CCCCC2)cc1)c1ccc(C(=O)O)cc1)S(=O)(=O)c1c(F)c(F)c(F)c(F)c1F | mouse, plasma | intravenous, 5 mg/kg | 124 ng/mL |
| CCCCCCCC(=O)OC[C@H](NC(=O)[C@H](CO)NC(=O)CN)C(=O)N[C@@H](Cc1ccccc1)C(=O)N[C@@H](CC(C)C)C(=O)N[C@@H](CO)C(=O)N1CCC[C@H]1C(=O)N[C@@H](CCC(=O)O)C(=O)N[C@@H](Cc1cnc[nH]1)C(=O)N[C@@H](CCC(N)=O)C(=O)N[C@@H](CCCNC(=N)N)C(=O)N[C@H](C(=O)N[C@@H](CCC(N)=O)C(=O)N[C@@H](CCC(N)=O)C(=O)N[C@@H](CCCNC(=N)N)C(=O)N[C@@H](CCCCN)C(=O)N[C@@H](CCC(=O)O)C(=O)N[C@@H](CO)C(=O)N[C@@H](CCCCN)C(=O)N[C@@H](CCCCN)C(=O)N1CCC[C@H]1C(=O)N1CCC[C@H]1C(=O)N[C@@H](C)C(=O)N[C@@H](CCCCN)C(=O)N[C@@H](CC(C)C)C(=O)N[C@@H](CCC(N)=O)C(=O)N1CCC[C@H]1C(=O)N[C@@H](CCCNC(=N)N)C(=O)O)C(C)C | mouse, plasma | intraperitoneal, 7.2 mg/kg | 171 ng/mL |
| COc1ccc(F)cc1S(=O)(=O)Nc1cnc2c(c1)C(=O)NCCO2 | male C57BL/6 mouse, plasma | oral, 1 mg/kg, single dose | 176 ng/mL |

Repeated from above:
| Compound | system | setting | Cmax |
| --- | --- | --- | --- |
| COc1ccc(F)cc1S(=O)(=O)Nc1cnc2c(c1)C(=O)NCCO2 | male C57BL/6 mouse, plasma | oral, 1 mg/kg, single dose | 176 ng/mL |
